# Results collected from several papers.
# Lines come from different studies, so protocols differ. Values joined by “and” are separate records of one study, mostly repeats; a detail may differ.
# Cell line: SK-MEL-5
SMILES,assay,conditions,scale,quantity,value
CCCCN1CCN(c2ccc3nc(-c4ccc5nc(-c6cc(OC)ccc6OC)[nH]c5c4)[nH]c3c2)CC1,SRB,"10 µM, 48 h",,growth percent,94.7%
Cc1cc(=O)[nH]c(=O)n1Cc1cn(-c2c3ccccc3nc3ccccc23)nn1,NCI60 single-dose screen,10 µM,,growth percentage,78.9%
NNc1nc(-c2ccc(Cl)cc2)c2c(NC(=O)c3ccccc3)nnc-2[nH]1,SRB,"10 µM, NCI60 single-dose screen",relative to: untreated,cell growth,101%
CC[C@H](C)[C@H](NC(=O)[C@H](CCCCN)NC(=O)[C@@H](NC(=O)[C@H](CCCNC(=N)N)NC(=O)[C@@H](NC(=O)[C@@H](CCCNC(=N)N)NC(=O)[C@@H](CCCNC(=N)N)NC(=O)[C@@H](CCCNC(=N)N)NC(=O)[C@@H](CCCNC(=N)N)NC(=O)[C@@H](CCCNC(=N)N)NC(=O)[C@H](N)CCCNC(=N)N)[C@@H](C)O)[C@@H](C)O)C(=O)N[C@@H](CC(=O)O)C(=O)N[C@@H](Cc1c[nH]c2ccccc12)C(=O)NC(C)(C)C(=O)N[C@@H](CCCCN)C(=O)N[C@H](C(=O)N[C@@H](CC(C)C)C(=O)NC(C)(C)C(=O)N[C@@H](CCCCN)C(=O)NCCCCCC(=O)NCCCC[C@H](NC(=O)CCCCCNC(=O)[C@H](CCCCN)NC(=O)C(C)(C)NC(=O)[C@H](CC(C)C)NC(=O)[C@@H](NC(=O)[C@H](CCCCN)NC(=O)C(C)(C)NC(=O)[C@H](Cc1c[nH]c2ccccc12)NC(=O)[C@H](CC(=O)O)NC(=O)[C@@H](NC(=O)[C@H](CCCCN)NC(=O)[C@@H](NC(=O)[C@H](CCCNC(=N)N)NC(=O)[C@@H](NC(=O)[C@@H](CCCNC(=N)N)NC(=O)[C@@H](CCCNC(=N)N)NC(=O)[C@@H](CCCNC(=N)N)NC(=O)[C@@H](CCCNC(=N)N)NC(=O)[C@@H](CCCNC(=N)N)NC(=O)[C@H](N)CCCNC(=N)N)[C@@H](C)O)[C@@H](C)O)[C@@H](C)CC)[C@@H](C)CC)C(N)=O)[C@@H](C)CC,annexin V flow cytometry,"10 µM, 2 h",,apoptotic cells,49%
CCOc1ccc(-c2nc3cc(-c4nc5cc(N6CCN(C)CC6)ccc5[nH]4)ccc3[nH]2)cc1OCC,SRB,"10 µM, 48 h",,growth percent,8.43%
O=C1NC(c2ccccc2)(c2ccccc2)C(=O)N1Cc1cn(-c2cc3ccccc3oc2=O)nn1,NCI60 single-dose screen,10 µM,,growth percentage,87.9%
CCCCN1CCN(c2ccc3[nH]c(-c4ccc5[nH]c(-c6ccc(OCC)c(OCC)c6)nc5c4)nc3c2)CC1,SRB,"10 µM, 48 h",,growth percent,8.19%
CCOC(=O)CSc1nc(-c2ccc(Cl)cc2)c2c(NC(=O)c3ccccc3)nnc-2[nH]1,SRB,"10 µM, NCI60 single-dose screen",relative to: untreated,cell growth,97.1%
C#C[C@@]1(O)[C@@H](CO)O[C@@H](n2cc(Cl)c3c(N)ncnc32)[C@@H]1O,SRB,NCI-60 screen,,TGI,343 nM and 268 nM
O=C(Nc1nnc2n3c(Cc4ccccc4)n[nH]c3nc(-c3ccc(Cl)cc3)c1-2)c1ccccc1,SRB,"10 µM, NCI60 single-dose screen",relative to: untreated,cell growth,97.7%
CCCCN1CCN(c2ccc3[nH]c(-c4ccc5[nH]c(-c6ccc(OCC)cc6)nc5c4)nc3c2)CC1,SRB,"10 µM, 48 h",,growth percent,49.3%
O=C(Nc1nnc2n3c(=S)[nH][nH]c3nc(-c3ccc(Cl)cc3)c1-2)c1ccccc1,SRB,"10 µM, NCI60 single-dose screen",relative to: untreated,cell growth,97.3%
O=c1ccn(Cc2cn(-c3c4ccccc4nc4ccccc34)nn2)c(=O)[nH]1,NCI60 single-dose screen,10 µM,,growth percentage,91.3%

# Repeated from above:
SMILES,assay,conditions,scale,quantity,value
CCCCN1CCN(c2ccc3nc(-c4ccc5nc(-c6cc(OC)ccc6OC)[nH]c5c4)[nH]c3c2)CC1,SRB,"10 µM, 48 h",,growth percent,94.7%
